Measurements collected from several papers.
Each line is one published result; not all experiments were run side by side. Several values in a cell are separate wells, animals, samples, runs or records. ± gives the spread as reported.

SMILES	target or system	assay	test system	conditions	scale	quantity	value
NC[C@@H](C(=O)Nc1ccc(-c2cn[nH]c2)cc1)c1ccccc1	–	tonometry	Macaca cyclopis, ocular normotensive	ocular, 0.03%, 52 h	–	IOP	17.3 mmHg
CCCCCc1ccc(S(=O)(=O)N2CC2C(=O)OC)cc1 (centres unmarked)	–	–	mouse, Lewis lung carcinoma	intraperitoneal, 15 mg/kg, 16 doses, day 14	–	tumour growth inhibition	64%
COc1cc(O)ccc1CCC(c1ccc(O)cc1)c1cc2c(c(C)c1O)OC(c1ccc(O)cc1)CC2 (mixture of isomers)	–	–	human blood	3 µM, with: A23187	–	LTB4 isomers level	197 ± 89 pg/mL
CN1CCC[C@]1(C)/C=C/S(=O)(=O)NC(=O)Nc1c2c(cc3c1CCC3)CCC2	–	–	human, whole blood ex vivo	250 mg single dose, 3 h, single ascending dose, with: LPS and ATP	–	IL-1β inhibition	99.2%
O=C(Nc1cnccc1-c1ccc([18F])nc1)c1ccnc(NC(=O)C2CC2)c1	–	–	mice, transgenic, GSK-3β, early-stage, heart	intravenous, dose not given, 120 min	–	SUV	0.103
CN1CCCNC(=O)c2cccc(c2)C(=O)NCCCN(C)CCCNc2cccc3c2C(=O)c2cccc(c2C3=O)NCCC1	–	–	KSN/Slc nude mice, SAS xenograft	dose not given, day 4, 96 h	–	tumour volume	159 mm3 and 171 mm3 and 98 mm3 and 154 mm3
COc1ccc(C(=O)CCc2cc(C(CCc3ccc(O)cc3OC)c3ccc(O)cc3)c(O)cc2OC)cc1 (racemic)	–	–	human blood	10 µM, with: A23187	–	LTB4 isomers level	374 ± 147 pg/mL
Cc1c(C)c2cccnc2c2ncccc12.O=[N+]([O-])[O-].O=c1c(C=NN=C([S-])Nc2ccccc2)coc2ccccc12.[Cu+2]	–	DNA cleavage	supercoiled pUC19 DNA	100 µM, 4 h, 37 °C, no reducing agent, with: DNA 40 µM	–	supercoiled DNA form	48%
COC1CN([C@H]2CC[C@H]([C@@]3(C)Oc4c(Cl)cc(C(=O)NCc5c(SC)cc(C)[nH]c5=O)c(C)c4O3)CC2)C1	–	RNA-seq, measured: ZMYND15	human, whole blood	dose not given, 24 h	reference: pretreatment baseline	log2 fold change	3.86
O=S(=O)(NCc1ccncc1)c1ccc(C2CCCCC2)cc1	–	immunohistochemistry	5XFAD mice male 1-year-old, hippocampus	ip, 0.3 mg/kg daily, 6 wk	reference: vehicle	amyloid–microglia colocalization reduction	~61%
O=C(N/N=C/c1ccc2c(ccc[n+]2Cc2ccccc2)c1)C(=O)N/N=C/c1ccc2c(ccc[n+]2Cc2ccccc2)c1	telomeric G4 DNA hybrid-2	FRET melting	–	1 µM, DNA 0.2 µM, with: duplex DNA competitor 10 µM	–	ΔTm	8 ± 0.7 °C
CCCCCCCCCCCCCCCC(=O)NCCCC[C@H](NC(=O)[C@H](CCC(=O)O)NC(=O)[C@H](Cc1ccc(O)cc1)NC(=O)[C@H](CCC(=O)O)NC(=O)COCC(=O)NCCCOCCOCCOCCCNC(=O)[C@H](Cc1ccccc1)NC(=O)[C@H](CC(N)=O)NC(=O)[C@H](Cc1c[nH]cn1)NC(=O)[C@@H](NC(=O)[C@H](CC(=O)O)NC(=O)[C@H](CCC(N)=O)NC(=O)[C@H](CC(C)C)NC(=O)[C@H](CCCCN)NC(=O)[C@H](CCCCN)NC(=O)[C@H](CCCNC(=N)N)NC(=O)[C@H](CC(C)C)NC(=O)[C@H](Cc1c[nH]c2ccccc12)NC(=O)[C@H](CCC(=O)O)NC(=O)[C@@H](NC(=O)[C@H](CCCNC(=N)N)NC(=O)[C@H](CCC(=O)O)NC(=O)[C@H](CCSC)NC(=O)[C@H](CO)NC(=O)[C@H](CC(N)=O)NC(=O)[C@H](CC(C)C)NC(=O)[C@H](Cc1c[nH]cn1)NC(=O)[C@H](CCCCN)NC(=O)CNC(=O)[C@H](CC(C)C)NC(=O)[C@H](CC(N)=O)NC(=O)[C@H](Cc1c[nH]cn1)NC(=O)[C@H](CCSC)NC(=O)[C@H](CC(C)C)NC(=O)[C@H](CCC(N)=O)NC(=O)[C@@H](NC(=O)[C@H](CCC(=O)O)NC(=O)[C@H](CO)NC(=O)[C@@H](NC(=O)[C@@H](N)CO)C(C)C)[C@@H](C)CC)C(C)C)C(C)C)C(=O)N[C@@H](CCC(=O)O)C(=O)N[C@@H](Cc1ccc(O)cc1)C(=O)N[C@@H](CCC(=O)O)C(N)=O	–	micro-CT	humanized PTH1R mouse, distal femur	50 nmol/kg/day, 3 weeks, daily dosing	–	trabecular bone volume fraction	52.1 ± 18.3%
COc1ccccc1-c1ccncc1C(=O)Nc1nnc(OCc2ccc(Cl)cc2)s1	–	immunofluorescence	MEFs, Mus musculus	10 µM, 24 h pretreatment, 6 h after irradiation, with: ionising radiation 2 Gy	–	RAD51 foci-positive nuclei	29.3% and 22.7% and 24.2%
C=CC(=O)Nc1cccc(Cn2ncc3cnc(Nc4cnn(CCOC)c4)nc32)c1	CDK9 human	binding, KINOMEscan	–	100 nM	lower = stronger binding	percent of control	100%
COc1ccc(NC(=O)c2ccc3[nH]c(-c4ccc(N(C)C)cc4)nc3c2)cn1	–	micro-CT	mice, spontaneous lung tumour model	intraperitoneal, 25 mg/kg 5 times per week, 10 weeks, sum of nodule volumes	–	tumour volume	25.2 mm3 and 0.35 mm3 and 1.1 mm3 and 2.28 mm3 and 1.96 mm3 and 5.47 mm3 and 1.33 mm3
COCCOCCOCCNC(=O)Cc1cc(CC(=O)N[C@H]2C[C@H]3C(=O)Nc4cc(OCCOCCOCCOC)cc(n4)C(=O)N4CCC[C@H]4C(=O)Nc4cc(OCCOCCOCCOC)cc(n4)C(=O)N4CCC[C@H]4C(=O)Nc4cc(OCCOCCOCCOC)cc(n4)C(=O)N3C2)cc(CC(=O)N[C@H]2C[C@H]3C(=O)Nc4cc(OCCOCCOCCOC)cc(n4)C(=O)N4CCC[C@H]4C(=O)Nc4cc(OCCOCCOCCOC)cc(n4)C(=O)N4CCC[C@H]4C(=O)Nc4cc(OCCOCCOCCOC)cc(n4)C(=O)N3C2)c1	–	anion binding, ITC	water/acetonitrile 95 vol% (98.2 mol%)	298 K, with: sodium iodide	–	ΔH	-1.46 ± 0.0478 kcal/mol
COCC1CN(C2CCN(c3cc(OC)c(Nc4ncc(Br)c(Nc5ccc6c(c5P(C)(C)=O)OCCO6)n4)cc3C)CC2)C1	–	RECIST 1.1	advanced EGFR-mutant NSCLC patients	150 mg once daily	–	partial response	16.7%
CC(=O)[O-].O.[Cu+2].[O-]c1ccc(Br)cc1C=NCCN1CCOCC1	–	FRAP	–	80 µM	–	ferric reducing power	21.6%
CCCCCCCCCCCCCCCC(=O)OCC(CSC[C@H](N)C(=O)N[C@@H](CO)C(=O)N[C@@H](CCCCN)C(=O)N[C@@H](CCCCN)C(=O)N[C@@H](CCCCN)C(=O)N[C@@H](CCCCN)C(=O)NCCCCCC(=O)N[C@@H](CCCCN)C(=O)N[C@@H](CC(C)C)C(=O)N[C@H](C(=O)N[C@@H](Cc1ccccc1)C(=O)N[C@@H](Cc1ccccc1)C(=O)N[C@@H](Cc1ccc2ccccc2c1)C(=O)O)C(C)C)OC(=O)CCCCCCCCCCCCCCC (some centres unmarked)	–	–	APP/PS1 transgenic mouse, cortex	local cortical injection, dose not given, unit not given	reference: injected over adjacent side	Iba1 level	2.91 and 2.48 and 2.44 and 2.49 and 2.31 and 2.52 and 3.31 and 2.95
CNS(=O)(=O)Nc1nccc(Cc2c(C)c3ccc(Oc4ncccc4F)cc3oc2=O)c1F	CMK-86	cell viability	–	7 days	–	IC50	3.65 nM
Cc1ncsc1-c1ccc(C(C)NC(=O)C2CC(O)CN2C(=O)C(NC(=O)CCCCCCCCCCN2CCCC(Nc3ncc(Cl)c(Nc4ccccc4S(=O)(=O)C(C)C)n3)C2)C(C)(C)C)cc1 (centres unmarked)	22Rv1	RNA-seq, measured: PTGFR mRNA	–	concentration not given	reference: DMSO	log2 fold change	-1.37
C=CC(=O)N1Cc2nc(-c3cc(-c4cc(Cl)cnc4Cl)c(F)cc3F)n(-c3ccncn3)c2C1	–	–	mice, NCI-H2073 vs LXF 2478 xenografts	highest clinically relevant dose, unit not given	reference: NCI-H2073 minus LXF 2478	growth rate difference	0.0564
C[n+]1ccc(/C=N/NC(=O)c2ccc3ccc(C(=O)N/N=C/c4cc[n+](C)cc4)nc3n2)cc1	telomeric G4 DNA hybrid-2	FRET melting	–	1 µM, DNA 0.2 µM, with: duplex DNA competitor 10 µM	–	ΔTm	8.8 ± 0.4 °C
N=C(N)NCCC[C@@H]1NC(=O)[C@H](CO)NC(=O)[C@@H](NC(=O)[C@H](CO)NC(=O)[C@H](CO)NC(=O)[C@H](Cc2c[nH]c3ccccc23)NC(=O)CNC(=O)[C@H](CO)NC(=O)[C@@H](N)Cc2c[nH]c3ccccc23)CSSC[C@@H](C(=O)NCC(=O)O)NC(=O)[C@H](CO)NC1=O	–	ELISA	human, older subgroup, plasma	concentration not given, day 26	–	VCAM decrease	~44%
COc1c(Cl)cccc1Nc1c(-c2ccncc2C#C[C@@]2(C)CCCN2C(=O)/C=C/CN(C)C)[nH]c2c1C(=O)NCC2	–	–	CUTO14 xenograft, EGFR ASV, female NSG mice	50 mg/kg once daily, 21 days, regression if TGI above 100 %	–	tumour regression	81%
Nc1ncc(-c2cc(-c3cnn(CC(F)(F)F)c3)ncc2F)nc1C(=O)NC1CNCC(F)C1 (centres unmarked)	CAMK1B	KINOMEscan competition binding	–	1 µM	reference: DMSO control	remaining binding	67%

A few entries again:
SMILES	target or system	assay	test system	conditions	scale	quantity	value
COC1CN([C@H]2CC[C@H]([C@@]3(C)Oc4c(Cl)cc(C(=O)NCc5c(SC)cc(C)[nH]c5=O)c(C)c4O3)CC2)C1	–	RNA-seq, measured: ZMYND15	human, whole blood	dose not given, 24 h	reference: pretreatment baseline	log2 fold change	3.86
O=S(=O)(NCc1ccncc1)c1ccc(C2CCCCC2)cc1	–	immunohistochemistry	5XFAD mice male 1-year-old, hippocampus	ip, 0.3 mg/kg daily, 6 wk	reference: vehicle	amyloid–microglia colocalization reduction	~61%
O=C(N/N=C/c1ccc2c(ccc[n+]2Cc2ccccc2)c1)C(=O)N/N=C/c1ccc2c(ccc[n+]2Cc2ccccc2)c1	telomeric G4 DNA hybrid-2	FRET melting	–	1 µM, DNA 0.2 µM, with: duplex DNA competitor 10 µM	–	ΔTm	8 ± 0.7 °C
